Assay results of several laboratories.
Every numbered part comes from another study and shows a few of its results, in no order.

Study 1
Target: Histone acetyltransferase KAT6A, winged helix 2, GST fusion (KAT6A, Homo sapiens, UniProt Q92794, residues 85-181)
Technique: protein binding microarray
Form: double-stranded DNA, one strand shown
Medium: in vitro
Concentration: not given
Notes: 8-mer, flanks averaged, mean of 2 arrays, mostly near background
Baseline: not given
Direction: higher = stronger binding
Target sequence (chain): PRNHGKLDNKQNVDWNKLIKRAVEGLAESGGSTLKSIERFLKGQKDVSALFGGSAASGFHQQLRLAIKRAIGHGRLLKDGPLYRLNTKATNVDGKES
Sequence | E-score
TGTGGAAA | -0.0804
CCCGAACA | -0.0622
CAACCACA | 0.0763
CGCATTAA | 0.0983

Study 2
Target: Interferon regulatory factor 3, full length, phosphomimetic (IRF3, Homo sapiens, UniProt Q14653, residues 1-427, S386D/S396D/S398D/S402D/T404D/S405D)
Sequence of UniProt Q14653 (whole entry, unmodified, looked up): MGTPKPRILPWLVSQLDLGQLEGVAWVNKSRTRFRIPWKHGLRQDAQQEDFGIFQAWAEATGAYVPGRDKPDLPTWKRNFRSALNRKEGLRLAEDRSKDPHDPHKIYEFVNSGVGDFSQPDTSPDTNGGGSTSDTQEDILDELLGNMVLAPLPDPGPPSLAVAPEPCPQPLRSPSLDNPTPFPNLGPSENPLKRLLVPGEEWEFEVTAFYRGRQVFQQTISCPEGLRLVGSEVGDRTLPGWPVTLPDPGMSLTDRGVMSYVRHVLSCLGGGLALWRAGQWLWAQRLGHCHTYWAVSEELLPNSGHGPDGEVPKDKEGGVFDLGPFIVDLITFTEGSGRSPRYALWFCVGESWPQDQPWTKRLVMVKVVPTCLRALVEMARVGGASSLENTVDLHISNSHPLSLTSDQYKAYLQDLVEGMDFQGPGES
Technique: protein-binding microarray
Form: double-stranded DNA, one strand shown
Medium: in vitro
Concentration: 2540 nM top
Notes: 60-bp whole probe
Added: salmon DNA 0.4 mg/ml
Baseline: random background probes
Direction: higher = stronger binding
Sequence | fitted relative affinity [z-score]
GCCTAGCACGACGATCTCAGACAGGAGACGTGCTAGGTCTTGATTCGCTTGACGCTGCTG | 0.292
GCCTAGCACTTAGGTTCCGGTTTCGGCTAGTGCTAGGTCTTGATTCGCTTGACGCTGCTG | 6.11
GCCTAGCACGACGGTTTCGGGTTTCGGGACGTGCTAGTCTTGATTCGCTTGACGCTGCTG | 5.76

Study 3
Target: Centromere-binding protein 1, full length, N-terminal tag (CBF1, Saccharomyces cerevisiae, UniProt P17106, residues 1-351)
Sequence of UniProt P17106 (whole entry, looked up): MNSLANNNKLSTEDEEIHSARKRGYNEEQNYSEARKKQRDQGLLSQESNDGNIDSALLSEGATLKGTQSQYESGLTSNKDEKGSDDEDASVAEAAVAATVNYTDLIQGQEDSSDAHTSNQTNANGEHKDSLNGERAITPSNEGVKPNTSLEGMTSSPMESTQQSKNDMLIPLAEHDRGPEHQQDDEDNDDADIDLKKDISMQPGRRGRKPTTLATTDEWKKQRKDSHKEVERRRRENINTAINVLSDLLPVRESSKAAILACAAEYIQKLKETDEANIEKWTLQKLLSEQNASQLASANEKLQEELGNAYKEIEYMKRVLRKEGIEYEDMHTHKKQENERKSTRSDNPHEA
Technique: protein-binding microarray
Form: double-stranded DNA, one strand shown
Medium: in vitro
Concentration: 0.8 µM
Notes: whole 60-bp probe, no competitor
Direction: higher = stronger binding
Sequence | fluorescence intensity
CTAGAACCCATACCTCACGTTTGAAATTGACACTTCGTCTTGATTCGCTTGACGCTGCTG | 541 a.u.
CCTAACTACTATACCCTTACATCATAGCTTCGTACAGTCTTGATTCGCTTGACGCTGCTG | 539 a.u.
GAAGGGCAGGCCCGTAACGTGTTTATTGATAGGTAGGTCTTGATTCGCTTGACGCTGCTG | 550 a.u.

Single results of other studies
Substance | target | test | system | setting | scale | measurement | result
PhoQ, residues 284 288 289 292 302 303 QWGLFV | PhoP, residues 12 14 15 18 19 QWHVF (Escherichia coli, UniProt P23836) | Sort-seq, item: YFP reporter | E. coli | PhoQ-PhoP variant library, added: 10 µM Mg2+ | baseline: high Mg2+ state, higher = stronger signaling | fold induction | 1.28
